Published values collected from several papers.
Every numbered part comes from another study and shows a few of its results, in no order. Substitutions count along the parent as printed.

Series 1 — target: CCND3, cyclin fold, Cln2 fusion (human); technique: yeast growth competition, sequencing; medium: yeast; notes: weak parent motif; relative to: not given; reading: higher = stronger binding
Starting sequence: SAMHD1 docking peptide (human); ASKSRVQLFKDDP
Variant	normalised enrichment score
Q7I	-0.0503
S2T	-0.0795
F9Q	-0.00428
R5D	-0.0257
Q7E	-0.0598
R5F	-0.00233
F9S	0.616
D12Y	0.679
D11E	0.224
L8N	0.216
K10Q	0.0977
K3S	0.158
S2R	-0.0572
K10C	0.0786
K3N	-0.32
D12C	-0.0288
Q7A	-0.39
R5P	-0.38
V6W	-0.304
K10L	0.161
S2M	0.106
Q7D	-0.0756
L8Q	0.00338
L8T	0.303
K3A	0.217

Series 2 — technique: DHFR PCA, deep sequencing; medium: yeast; added: (+)-ABA 0.11 µM; relative to: wild-type fitted maximum; reading: higher = stronger binding
Target: ABI1, truncated, D143A, DHFR fusion (Arabidopsis thaliana)
Notes: methotrexate growth selection, single substitutions
Starting sequence: PYL1, truncated, DHFR fusion (Arabidopsis thaliana); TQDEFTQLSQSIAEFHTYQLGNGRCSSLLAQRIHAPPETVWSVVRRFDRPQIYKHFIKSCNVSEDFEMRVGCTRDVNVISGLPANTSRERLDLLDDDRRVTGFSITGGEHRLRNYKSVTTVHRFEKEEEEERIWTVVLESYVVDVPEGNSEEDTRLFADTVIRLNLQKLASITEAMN; partner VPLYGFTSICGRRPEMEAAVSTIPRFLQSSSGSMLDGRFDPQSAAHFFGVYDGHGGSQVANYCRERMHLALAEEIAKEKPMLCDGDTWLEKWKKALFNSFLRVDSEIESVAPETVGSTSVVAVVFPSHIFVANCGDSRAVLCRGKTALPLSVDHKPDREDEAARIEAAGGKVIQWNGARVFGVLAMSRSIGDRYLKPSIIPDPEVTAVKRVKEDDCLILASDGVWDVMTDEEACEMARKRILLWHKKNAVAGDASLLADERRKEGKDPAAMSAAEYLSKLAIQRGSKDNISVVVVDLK
Variant	relative binding score
R123E	48.8%
R163I	-13.1%
R24H	8.82%
M68A	4.48%
F56I	-0.22%
G71F	7.99%
T173D	1.23%
F47L	11.9%
C60E	-3.12%

Series 3 — technique: universal PBM; form: double-stranded DNA, one strand shown; medium: in vitro; concentration: not given; reading: higher = stronger binding
Target: Sal-like protein 4, full length isoform B (SALL4, Homo sapiens, UniProt Q9UJQ4-2, residues 1-616)
Notes: 8-mer, flanks averaged, mean of replicates
Sequence	E-score
AGTAACAT	0.113
ACCAAGTA	0.0161
GAACGATA	0.154
CGGTCGTA	-0.132
GAGACGGA	-0.231
CTTTTCCC	0.0573
ATGCTCAG	-0.0427
GACCACTC	-0.175
TGGGGTAA	-0.0791
AAGCGGTA	-0.0603
CCGTATGC	-0.164
CTAGTTGC	-0.0249
ACGTCCTA	-0.00655
ATGAGATC	0.146
ATAAAAGA	0.261
TGCGGAAA	0.127
AGAAGGCA	-0.016
CAAACCAA	0.116
CGTCTCTA	-0.204
ACCTGCAA	-0.14
ACTAGGAC	-0.0269
CCGGCTCA	-0.0686

Further values, each from its own experiment
Molecule	target	assay	test system	setting	how to read	quantity	result
PhoQ, residues 284 288 289 292 302 303 TGYLSA	PhoP, residues 12 14 15 18 19 LQHIR (Escherichia coli, UniProt P23836)	Sort-seq, refers to: YFP reporter	E. coli	PhoQ-PhoP variant library, added: 10 µM Mg2+	relative to: high Mg2+ state, higher = stronger signaling	fold induction	15.3

For quick reference, copied from above (series 3):
Sequence	E-score
AGTAACAT	0.113
ACCAAGTA	0.0161
GAACGATA	0.154
CGGTCGTA	-0.132
GAGACGGA	-0.231
